# Experimental data from different studies.
# Numbered parts are unrelated; each lists some results of a single study.
# Sequence of UniProt P05771 (whole entry, looked up): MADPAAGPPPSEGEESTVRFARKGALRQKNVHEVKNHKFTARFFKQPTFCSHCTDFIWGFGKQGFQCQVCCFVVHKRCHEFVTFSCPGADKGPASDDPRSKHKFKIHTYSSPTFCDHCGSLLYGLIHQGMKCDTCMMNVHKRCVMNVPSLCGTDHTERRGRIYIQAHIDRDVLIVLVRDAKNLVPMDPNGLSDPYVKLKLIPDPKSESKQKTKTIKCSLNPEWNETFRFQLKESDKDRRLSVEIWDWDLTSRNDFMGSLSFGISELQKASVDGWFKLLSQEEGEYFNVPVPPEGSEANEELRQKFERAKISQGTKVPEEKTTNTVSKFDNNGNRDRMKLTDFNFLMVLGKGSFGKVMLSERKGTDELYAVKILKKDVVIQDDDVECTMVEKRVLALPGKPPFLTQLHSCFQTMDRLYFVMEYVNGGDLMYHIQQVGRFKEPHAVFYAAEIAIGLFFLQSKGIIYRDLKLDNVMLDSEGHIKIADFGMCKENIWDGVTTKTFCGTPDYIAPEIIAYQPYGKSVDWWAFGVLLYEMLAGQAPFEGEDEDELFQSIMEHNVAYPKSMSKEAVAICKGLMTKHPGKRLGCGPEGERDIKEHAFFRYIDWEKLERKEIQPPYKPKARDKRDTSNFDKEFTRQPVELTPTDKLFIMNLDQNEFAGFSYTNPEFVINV

# Set 1
# Target: Phosphate system positive regulatory protein PHO4, full length, GST-tagged (PHO4, Saccharomyces cerevisiae, UniProt P07270, residues 1-312)
# Method: competition protein-binding microarray
# Molecule type: double-stranded DNA, one strand shown
# Matrix: in vitro
# Tested at: 2 µM
# Setting: whole 60-bp probe, lowest competitor level
# Together with: Cbf1 competitor, 0.05 µM
# Direction: higher = stronger binding
# Constant ends, left off below: … GTCTTGATTCGCTTGACGCTGCTG
# Target sequence (chain): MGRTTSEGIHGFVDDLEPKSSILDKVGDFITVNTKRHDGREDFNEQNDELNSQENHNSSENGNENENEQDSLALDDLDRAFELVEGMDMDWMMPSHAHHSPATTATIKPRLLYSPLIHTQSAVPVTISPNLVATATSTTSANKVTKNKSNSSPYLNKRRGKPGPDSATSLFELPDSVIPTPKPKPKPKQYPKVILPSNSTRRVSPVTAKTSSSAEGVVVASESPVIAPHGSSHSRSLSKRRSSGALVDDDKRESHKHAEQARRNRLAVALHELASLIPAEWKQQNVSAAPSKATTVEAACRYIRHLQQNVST
Strand,fluorescence intensity [a.u.]
CGTCCTAGTGATTTTCACGTGTTATCCATGAGGAAG,14700
CATTGAAAAGCAAGTGACGTGACTCGAACTTGAAAG,3980
CTTTCCCGATCTTGGGTAGTGGGTGTAGCACATTTG,5070
TCCAGTACGGACTGGCACGTGTGTTCCCACCAGGGT,19600
AATCATGGAATCCATCACGTGGTCGCAACTGGGGAT,19000
CATACCCAACCTTGTACAGTGGGTGAAGATATTTGT,3610
CGTCCTAGTGATTGCTTGGTGGGTGCCATGAGGAAG,6230
CATAATAACAGTTGCGTTGTGACGCTATTGTTAACA,4360

# Set 2
# Target: Histone acetyltransferase KAT6A, both winged helices, GST fusion (KAT6A, Homo sapiens, UniProt Q92794, residues 1-181)
# Method: protein binding microarray
# Molecule type: double-stranded DNA, one strand shown
# Matrix: in vitro
# Tested at: not given
# Setting: 8-mer, flanks averaged, mean of 2 arrays, mostly near background
# Reference: not given
# Direction: higher = stronger binding
# Construct (chain): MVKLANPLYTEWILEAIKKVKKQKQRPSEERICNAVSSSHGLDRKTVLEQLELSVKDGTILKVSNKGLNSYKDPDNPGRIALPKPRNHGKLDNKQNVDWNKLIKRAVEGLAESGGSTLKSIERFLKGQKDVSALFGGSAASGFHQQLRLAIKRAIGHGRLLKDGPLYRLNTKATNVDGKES
Strand,E-score
CTAGCAAC,0.0623
CATGAGCC,-0.116
ACCTGTAT,-0.193
TCGGTCAA,0.0959
CCTTCCTC,-0.148
CAAGTTCC,0.00781
AGTTATGA,-0.131
ACACCAGC,-0.0841

# Single results of other studies
Substance,target,test,system,conditions,scale,measurement,value
"PhoQ, residues 284 288 289 292 302 303 SSCCRF","PhoP, residues 12 14 15 18 19 HLGGL (Escherichia coli, UniProt P23836)","Sort-seq, refers to: YFP reporter",E. coli,"PhoQ-PhoP variant library, together with: 10 µM Mg2+","reference: high Mg2+ state, higher = stronger signaling",fold induction,14.6
CCOC(=O)c1c(C)[nH]c(/C=C2\C(=O)Nc3ccccc32)c1C,"Protein kinase C beta type, isoform beta-I (PRKCB, Homo sapiens, UniProt P05771)","enzyme activity, inhibitor",,0.5 µM,reference: control,remaining activity,103%

# For quick reference, copied from above (set 1):
Strand,fluorescence intensity [a.u.]
CATACCCAACCTTGTACAGTGGGTGAAGATATTTGT,3610
CATAATAACAGTTGCGTTGTGACGCTATTGTTAACA,4360
